{"data": "Measurements gathered from unrelated publications", "note": "A part holds a random share of what one study measured. Changes are numbered by the printed parent chain."}
{"data": "Set 1", "target": "Centromere-binding protein 1, full length, N-terminal tag (CBF1, Saccharomyces cerevisiae, UniProt P17106, residues 1-351)", "technique": "protein-binding microarray", "form": "double-stranded DNA, one strand shown", "matrix": "in vitro", "concentration": "0.8 µM", "notes": "whole 60-bp probe, no competitor", "direction": "higher = stronger binding", "sequence of UniProt P17106 (whole entry, looked up)": "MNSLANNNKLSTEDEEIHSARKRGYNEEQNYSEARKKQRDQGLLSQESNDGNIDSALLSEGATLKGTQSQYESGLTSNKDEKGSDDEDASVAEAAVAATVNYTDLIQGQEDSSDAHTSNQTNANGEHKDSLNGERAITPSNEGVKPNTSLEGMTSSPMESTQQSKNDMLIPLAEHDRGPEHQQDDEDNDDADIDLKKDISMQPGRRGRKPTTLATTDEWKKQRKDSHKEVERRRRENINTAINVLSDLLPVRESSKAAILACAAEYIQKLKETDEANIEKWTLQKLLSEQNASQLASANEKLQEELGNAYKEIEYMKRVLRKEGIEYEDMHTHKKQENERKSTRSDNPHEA"}
{"Oligonucleotide": "CTAGCTTGAAACGAACGCACCACGAAGTCAGTGTTCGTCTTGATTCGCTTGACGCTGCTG", "fluorescence intensity [a.u.]": 516}
{"Oligonucleotide": "GAAAGACGATAGTGGATTTTTATTCCAACAGAGTAGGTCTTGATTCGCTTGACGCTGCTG", "fluorescence intensity [a.u.]": 486}
{"Oligonucleotide": "CTAGTAACGCCGGCTGACGTGGACGATTTATCATTCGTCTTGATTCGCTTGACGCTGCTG", "fluorescence intensity [a.u.]": 541}
{"Oligonucleotide": "CTAGCGAGACAGAAGGACGTGCCCTTAGCTATTTTCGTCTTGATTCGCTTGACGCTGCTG", "fluorescence intensity [a.u.]": 486}
{"Oligonucleotide": "CTAGTATATCTATATTCCGTGATGCCTTTGTGGTTCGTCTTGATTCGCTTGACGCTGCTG", "fluorescence intensity [a.u.]": 557}
{"Oligonucleotide": "GAACGACCGTACAAGCACGTACTGTGTAATTTTTAGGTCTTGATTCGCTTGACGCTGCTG", "fluorescence intensity [a.u.]": 537}
{"Oligonucleotide": "CCTAACTACTATAGTTGTGTGACATAGCTTCGTACAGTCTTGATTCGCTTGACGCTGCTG", "fluorescence intensity [a.u.]": 549}
{"Oligonucleotide": "GAAAACGTGCACCAACACGTGTGCGGCAACCTGTAGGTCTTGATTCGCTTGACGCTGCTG", "fluorescence intensity [a.u.]": 4040}
{"Oligonucleotide": "CTACTACCTTCACTGCACGAAACCAAAAGCGACTTCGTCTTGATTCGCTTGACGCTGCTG", "fluorescence intensity [a.u.]": 596}
{"Oligonucleotide": "GAATCCACAGAGCTTCACATGTTTTACACCTCTTAGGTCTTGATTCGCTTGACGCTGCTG", "fluorescence intensity [a.u.]": 551}
{"Oligonucleotide": "CTATCCACTTTTTTCAACGTGCAAAAGTTGTCCTTCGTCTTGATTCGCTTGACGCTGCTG", "fluorescence intensity [a.u.]": 601}
{"Oligonucleotide": "GAACGTTGGTAAAACCACGAGTTTGGAATCAAATAGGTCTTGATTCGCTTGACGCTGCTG", "fluorescence intensity [a.u.]": 570}
{"Oligonucleotide": "GAACCCTTCGTGAAACACGTGGGATACCGGTTATAGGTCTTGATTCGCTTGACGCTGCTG", "fluorescence intensity [a.u.]": 2360}
{"Oligonucleotide": "CTAGTGAGAGACGGTCATCAGATTTAGTTGGAGTTCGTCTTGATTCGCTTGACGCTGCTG", "fluorescence intensity [a.u.]": 559}
{"Oligonucleotide": "CTACCAATTCTTGATCTGGTGATCCATACGATTTTCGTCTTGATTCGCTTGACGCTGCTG", "fluorescence intensity [a.u.]": 897}
{"Oligonucleotide": "CTACCTCGCTCAGAACATCAGCGAGAGTTCCAGTTCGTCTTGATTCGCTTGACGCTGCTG", "fluorescence intensity [a.u.]": 514}
{"data": "Set 2", "target": "ABI1, truncated, D143A, DHFR fusion (Arabidopsis thaliana)", "technique": "DHFR PCA, deep sequencing", "matrix": "yeast", "notes": "methotrexate growth selection, single substitutions", "with": "(+)-ABA 0 µM", "relative to": "wild-type fitted maximum", "direction": "higher = stronger binding", "starting sequence": "PYL1, truncated, DHFR fusion (Arabidopsis thaliana); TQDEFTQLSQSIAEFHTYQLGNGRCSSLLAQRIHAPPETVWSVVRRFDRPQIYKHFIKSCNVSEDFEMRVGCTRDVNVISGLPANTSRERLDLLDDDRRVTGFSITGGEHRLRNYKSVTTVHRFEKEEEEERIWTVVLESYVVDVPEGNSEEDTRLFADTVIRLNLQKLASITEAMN; partner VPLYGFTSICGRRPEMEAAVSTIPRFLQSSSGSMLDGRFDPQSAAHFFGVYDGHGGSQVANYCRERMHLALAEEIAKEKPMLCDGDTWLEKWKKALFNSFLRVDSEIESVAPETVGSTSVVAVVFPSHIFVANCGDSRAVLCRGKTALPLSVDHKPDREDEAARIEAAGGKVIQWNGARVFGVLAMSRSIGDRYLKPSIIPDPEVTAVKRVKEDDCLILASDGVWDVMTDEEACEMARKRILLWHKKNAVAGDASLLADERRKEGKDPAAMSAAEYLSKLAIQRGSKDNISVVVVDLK"}
{"Change": "S63W", "relative binding score": "13.1%"}
{"Change": "R163W", "relative binding score": "0.065%"}
{"Change": "L166H", "relative binding score": "5.48%"}
{"Change": "Q10N", "relative binding score": "25.4%"}
{"Change": "G107E", "relative binding score": "21.5%"}
{"Change": "R90K", "relative binding score": "8.37%"}
{"Change": "R32G", "relative binding score": "-0.0798%"}
{"Change": "V43R", "relative binding score": "-1.12%"}
{"Change": "H34M", "relative binding score": "37.9%"}
{"Change": "E147H", "relative binding score": "13.1%"}
{"Change": "R123V", "relative binding score": "-2.39%"}
{"Change": "P83K", "relative binding score": "13.5%"}
{"Change": "T120I", "relative binding score": "-7.86%"}
{"Change": "T101R", "relative binding score": "-6.34%"}
{"Change": "Y141I", "relative binding score": "-1.83%"}
{"Change": "T160P", "relative binding score": "-0.113%"}
{"Change": "P50Y", "relative binding score": "3.47%"}
{"data": "Set 3", "target": "CCNE2, cyclin fold, Cln2 fusion (human)", "technique": "yeast growth competition, sequencing", "matrix": "yeast", "notes": "strong parent motif", "relative to": "not given", "direction": "higher = stronger binding", "starting sequence": "SCAPER docking peptide (human); SNARRSLNFGGST"}
{"Change": "CNARRSLNFGGST [S1C]", "normalised enrichment score": 2.03}
{"Change": "SNARMSLNFGGST [R5M]", "normalised enrichment score": 0.757}
{"Change": "SNACRSLNFGGST [R4C]", "normalised enrichment score": 0.557}
{"Change": "SNARTSLNFGGST [R5T]", "normalised enrichment score": 0.347}
{"Change": "SNARRSLAFGGST [N8A]", "normalised enrichment score": 0.517}
{"Change": "SNARRSLGFGGST [N8G]", "normalised enrichment score": 0.841}
{"Change": "SNARRSLNLGGST [F9L]", "normalised enrichment score": 0.274}
{"Change": "FNARRSLNFGGST [S1F]", "normalised enrichment score": 2.39}
{"Change": "INARRSLNFGGST [S1I]", "normalised enrichment score": 1.3}
{"Change": "SNARRALNFGGST [S6A]", "normalised enrichment score": 3.09}
{"Change": "SLARRSLNFGGST [N2L]", "normalised enrichment score": 0.657}
{"Change": "SNAPRSLNFGGST [R4P]", "normalised enrichment score": 0.075}
{"Change": "SNARRSLCFGGST [N8C]", "normalised enrichment score": 0.846}
{"Change": "SNARRSLNFGTST [G11T]", "normalised enrichment score": 1.91}
{"Change": "SNARRSLNFGSST [G11S]", "normalised enrichment score": 0.818}
{"Change": "SNALRSLNFGGST [R4L]", "normalised enrichment score": -0.224}
{"Change": "SNARRSLNKGGST [F9K]", "normalised enrichment score": 0.11}
{"Change": "SNARRSLNFGNST [G11N]", "normalised enrichment score": 1.4}
{"Change": "SNARRSLNFGGSI [T13I]", "normalised enrichment score": 0.992}
{"data": "Other studies, line by line"}
{"Molecule": "PhoQ, residues 284 288 289 292 302 303 TGYLSA", "target": "PhoP, residues 12 14 15 18 19 STWGI (Escherichia coli, UniProt P23836)", "test": "Sort-seq, measured: YFP reporter", "test system": "E. coli", "conditions": "PhoQ-PhoP variant library, with: 10 µM Mg2+", "scale": "relative to: high Mg2+ state, higher = stronger signaling", "measurement": "fold induction", "value": 13.8}
{"note": "Repeated from above (set 3):"}
{"Change": "SNARRSLNFGGSI [T13I]", "normalised enrichment score": 0.992}
{"Change": "SNARRSLNLGGST [F9L]", "normalised enrichment score": 0.274}
{"Change": "SNARRALNFGGST [S6A]", "normalised enrichment score": 3.09}
{"Change": "SNARRSLGFGGST [N8G]", "normalised enrichment score": 0.841}
{"Change": "SNAPRSLNFGGST [R4P]", "normalised enrichment score": 0.075}
{"Change": "SNACRSLNFGGST [R4C]", "normalised enrichment score": 0.557}
{"Change": "SNARRSLNFGNST [G11N]", "normalised enrichment score": 1.4}
{"Change": "SNARRSLNFGSST [G11S]", "normalised enrichment score": 0.818}
